Measured values of several laboratories.
Numbered parts are unrelated; each lists some results of a single study.
Chain of UniProt Q00536 (whole entry, looked up): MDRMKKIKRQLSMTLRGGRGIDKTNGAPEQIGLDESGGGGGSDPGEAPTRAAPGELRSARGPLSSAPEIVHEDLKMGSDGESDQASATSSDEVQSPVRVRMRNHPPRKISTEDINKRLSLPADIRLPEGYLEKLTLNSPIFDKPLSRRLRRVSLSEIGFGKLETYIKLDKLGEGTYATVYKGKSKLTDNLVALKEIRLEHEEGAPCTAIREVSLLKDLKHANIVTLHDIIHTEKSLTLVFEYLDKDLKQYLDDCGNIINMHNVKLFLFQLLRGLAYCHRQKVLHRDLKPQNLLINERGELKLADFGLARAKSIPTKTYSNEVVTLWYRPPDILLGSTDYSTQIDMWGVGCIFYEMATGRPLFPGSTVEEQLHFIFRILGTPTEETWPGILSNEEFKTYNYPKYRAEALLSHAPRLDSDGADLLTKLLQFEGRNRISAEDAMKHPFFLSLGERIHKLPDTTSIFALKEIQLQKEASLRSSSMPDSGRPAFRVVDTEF
Chain of UniProt Q9UF33 (whole entry, looked up): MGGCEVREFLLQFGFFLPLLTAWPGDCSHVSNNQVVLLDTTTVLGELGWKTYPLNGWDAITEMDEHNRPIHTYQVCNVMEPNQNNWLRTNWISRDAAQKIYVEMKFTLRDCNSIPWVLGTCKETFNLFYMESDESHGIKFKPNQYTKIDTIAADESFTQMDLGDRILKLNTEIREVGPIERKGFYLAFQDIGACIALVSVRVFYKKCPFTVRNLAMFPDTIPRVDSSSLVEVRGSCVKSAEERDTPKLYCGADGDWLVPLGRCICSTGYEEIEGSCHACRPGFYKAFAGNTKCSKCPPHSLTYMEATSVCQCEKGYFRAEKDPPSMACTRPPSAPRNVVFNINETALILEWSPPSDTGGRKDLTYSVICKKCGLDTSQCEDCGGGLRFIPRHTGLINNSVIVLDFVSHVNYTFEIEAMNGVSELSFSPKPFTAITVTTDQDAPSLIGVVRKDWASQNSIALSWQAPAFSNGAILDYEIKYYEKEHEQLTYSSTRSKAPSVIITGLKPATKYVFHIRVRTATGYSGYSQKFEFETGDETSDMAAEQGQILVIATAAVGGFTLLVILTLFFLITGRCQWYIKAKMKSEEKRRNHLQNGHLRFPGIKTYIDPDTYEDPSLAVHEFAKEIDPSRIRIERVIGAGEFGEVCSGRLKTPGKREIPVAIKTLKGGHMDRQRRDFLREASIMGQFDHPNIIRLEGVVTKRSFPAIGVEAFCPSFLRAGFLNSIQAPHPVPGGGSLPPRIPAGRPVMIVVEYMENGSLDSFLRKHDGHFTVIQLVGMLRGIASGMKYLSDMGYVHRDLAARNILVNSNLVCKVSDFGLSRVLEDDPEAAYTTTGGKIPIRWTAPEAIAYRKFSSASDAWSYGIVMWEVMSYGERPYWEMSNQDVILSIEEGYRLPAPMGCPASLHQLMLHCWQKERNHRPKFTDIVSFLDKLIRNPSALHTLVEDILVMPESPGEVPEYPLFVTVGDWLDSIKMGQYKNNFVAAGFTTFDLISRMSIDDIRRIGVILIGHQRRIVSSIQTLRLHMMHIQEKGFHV
Chain of UniProt Q8NEV4 (whole entry, looked up): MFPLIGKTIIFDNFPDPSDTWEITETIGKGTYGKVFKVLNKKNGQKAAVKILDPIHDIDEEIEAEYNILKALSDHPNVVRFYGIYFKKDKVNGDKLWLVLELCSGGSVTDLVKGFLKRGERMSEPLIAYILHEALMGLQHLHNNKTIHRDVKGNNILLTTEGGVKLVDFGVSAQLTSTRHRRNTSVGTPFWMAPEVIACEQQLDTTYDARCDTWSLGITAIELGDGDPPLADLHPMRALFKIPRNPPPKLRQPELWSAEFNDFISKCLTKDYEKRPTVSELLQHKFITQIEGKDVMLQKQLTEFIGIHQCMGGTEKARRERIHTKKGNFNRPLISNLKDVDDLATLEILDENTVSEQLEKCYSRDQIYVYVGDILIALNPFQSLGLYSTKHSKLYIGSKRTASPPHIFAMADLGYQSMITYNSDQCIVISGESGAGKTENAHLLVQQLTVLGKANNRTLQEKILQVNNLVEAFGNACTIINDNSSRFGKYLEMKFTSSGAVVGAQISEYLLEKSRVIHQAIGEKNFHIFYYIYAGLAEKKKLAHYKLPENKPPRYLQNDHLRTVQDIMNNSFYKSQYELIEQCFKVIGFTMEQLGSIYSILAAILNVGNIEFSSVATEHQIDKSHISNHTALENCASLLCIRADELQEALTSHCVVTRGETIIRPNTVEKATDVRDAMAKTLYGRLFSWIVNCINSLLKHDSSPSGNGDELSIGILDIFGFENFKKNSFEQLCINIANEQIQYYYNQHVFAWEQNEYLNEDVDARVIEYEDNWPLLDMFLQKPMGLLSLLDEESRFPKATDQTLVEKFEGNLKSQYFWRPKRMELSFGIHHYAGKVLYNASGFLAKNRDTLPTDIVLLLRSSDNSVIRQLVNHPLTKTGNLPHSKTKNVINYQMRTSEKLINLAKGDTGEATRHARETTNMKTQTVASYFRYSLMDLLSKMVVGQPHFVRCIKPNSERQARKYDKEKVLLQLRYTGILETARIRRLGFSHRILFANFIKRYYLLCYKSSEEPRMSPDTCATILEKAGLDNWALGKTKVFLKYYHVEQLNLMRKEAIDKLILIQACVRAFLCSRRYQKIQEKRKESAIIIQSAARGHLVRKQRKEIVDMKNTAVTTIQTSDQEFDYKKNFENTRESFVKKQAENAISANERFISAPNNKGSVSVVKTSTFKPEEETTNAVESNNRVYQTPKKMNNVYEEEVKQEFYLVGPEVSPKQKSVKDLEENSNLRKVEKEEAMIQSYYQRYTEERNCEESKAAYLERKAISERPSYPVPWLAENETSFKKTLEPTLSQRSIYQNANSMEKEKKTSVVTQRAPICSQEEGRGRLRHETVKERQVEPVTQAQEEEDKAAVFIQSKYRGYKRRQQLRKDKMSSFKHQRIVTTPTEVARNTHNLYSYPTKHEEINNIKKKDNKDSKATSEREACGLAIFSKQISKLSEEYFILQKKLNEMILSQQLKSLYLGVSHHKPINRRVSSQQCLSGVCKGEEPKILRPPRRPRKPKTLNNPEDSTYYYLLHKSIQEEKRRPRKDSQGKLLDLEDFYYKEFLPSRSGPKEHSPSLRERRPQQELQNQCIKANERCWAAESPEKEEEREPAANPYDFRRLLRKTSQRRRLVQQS
Chain of UniProt P42336 (whole entry, looked up): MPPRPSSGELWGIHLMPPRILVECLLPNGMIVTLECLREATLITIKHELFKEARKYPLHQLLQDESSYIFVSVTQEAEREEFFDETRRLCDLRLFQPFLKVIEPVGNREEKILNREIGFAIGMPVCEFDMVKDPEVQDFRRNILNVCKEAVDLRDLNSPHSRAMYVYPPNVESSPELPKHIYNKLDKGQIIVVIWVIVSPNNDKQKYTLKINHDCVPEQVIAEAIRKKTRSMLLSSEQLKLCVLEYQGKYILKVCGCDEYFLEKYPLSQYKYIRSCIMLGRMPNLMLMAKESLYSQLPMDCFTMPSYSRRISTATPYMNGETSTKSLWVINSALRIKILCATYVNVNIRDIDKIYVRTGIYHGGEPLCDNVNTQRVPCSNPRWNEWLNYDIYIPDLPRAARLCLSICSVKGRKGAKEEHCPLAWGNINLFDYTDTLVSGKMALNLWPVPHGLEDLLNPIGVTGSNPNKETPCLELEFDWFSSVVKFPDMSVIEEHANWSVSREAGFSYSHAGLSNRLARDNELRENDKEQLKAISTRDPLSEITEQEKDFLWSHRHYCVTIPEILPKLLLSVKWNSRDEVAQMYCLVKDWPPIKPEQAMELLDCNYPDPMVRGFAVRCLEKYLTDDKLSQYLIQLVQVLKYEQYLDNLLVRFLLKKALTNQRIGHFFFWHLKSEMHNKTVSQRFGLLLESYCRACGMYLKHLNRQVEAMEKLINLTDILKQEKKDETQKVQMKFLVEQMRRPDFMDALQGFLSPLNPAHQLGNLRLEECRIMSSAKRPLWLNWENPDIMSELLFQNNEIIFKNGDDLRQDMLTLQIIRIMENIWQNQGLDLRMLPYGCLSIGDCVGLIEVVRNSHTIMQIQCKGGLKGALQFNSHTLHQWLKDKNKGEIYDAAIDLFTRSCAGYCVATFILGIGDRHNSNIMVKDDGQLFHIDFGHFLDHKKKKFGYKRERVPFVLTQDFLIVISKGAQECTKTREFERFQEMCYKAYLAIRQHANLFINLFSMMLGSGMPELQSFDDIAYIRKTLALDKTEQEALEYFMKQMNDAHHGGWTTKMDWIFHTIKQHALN

Set 1 — effect on: cell-free assay; method: competition with immobilised ligand; tested at: 1 µM
Compound: CN(C)c1ncnc(-c2ccc3nc(Nc4cc(CN5CCN(C(=O)CC(F)(F)F)CC5)ccn4)[nH]c3c2)c1Cl
target | remaining binding [%]
EPHA6 (Homo sapiens, UniProt Q9UF33) | 100
NTRK1 (Homo sapiens, UniProt P04629) | 38
CDK16 (Homo sapiens, UniProt Q00536) | 74
EPHA3 (Homo sapiens, UniProt P29320) | 63
MARK2 (Homo sapiens, UniProt Q7KZI7) | 68
PHKG1 (Homo sapiens, UniProt Q16816) | 96
Myosin-IIIa (MYO3A, Homo sapiens, UniProt Q8NEV4) | 100
RIOK2 (Homo sapiens, UniProt Q9BVS4) | 81
MAPK9 (Homo sapiens, UniProt P45984) | 47
Ribosomal protein S6 kinase alpha-5, N-terminal kinase domain (RPS6KA5, Homo sapiens, UniProt O75582) | 100
RET (Homo sapiens, UniProt P07949) | 77
WNK2 (Homo sapiens, UniProt Q9Y3S1) | 59
MINK1 (Homo sapiens, UniProt Q8N4C8) | 57
MAP3K13 (Homo sapiens, UniProt O43283) | 86
SIK3 (Homo sapiens, UniProt Q9Y2K2) | 83
Tyrosine-protein kinase ABL1, phosphorylated (ABL1, Homo sapiens, UniProt P00519, F317L) | 57
PIK3CA (Homo sapiens, UniProt P42336) | 100

Set 2 — cell line: HaCaT; tested at: 100 µM; time: 36 h
Structure (SMILES) | viability [%]
CC(=O)c1ccc(S(=O)(=O)NC(=O)NC2CCCCC2)cc1 | 99.9
CN1CCCCC1CCN1c2ccccc2Sc2ccc([S+](C)[O-])cc21 (centres unmarked) | 4.83
CC(=O)Nc1ccc(OC(=O)c2ccccc2OC(C)=O)cc1 | 85.9
OC[C@@H](O)[C@@H](O[C@@H]1O[C@H](CO)[C@H](O)[C@H](O)[C@H]1O)[C@H](O)[C@@H](O)CO | 73.2
O=c1[nH]c(=O)n([C@H]2C[C@H](O)[C@@H](CO)O2)cc1F | 36.1
Nc1nc(=O)[nH]cc1F | 87.6
O=C(O)c1cc(=O)c2c(OCC(O)COc3cccc4oc(C(=O)O)cc(=O)c34)cccc2o1 | 96.1
CCOC(=O)c1c(C)n(C)c2ccc(O)cc12 | 39.6

Set 3 — effect on: enzyme activity; action: inhibitor; tested at: 0.5 µM; relative to: control
Target: Fibroblast growth factor receptor 2 (FGFR2, Homo sapiens, UniProt P21802)
Chain of UniProt P21802 (whole entry, looked up): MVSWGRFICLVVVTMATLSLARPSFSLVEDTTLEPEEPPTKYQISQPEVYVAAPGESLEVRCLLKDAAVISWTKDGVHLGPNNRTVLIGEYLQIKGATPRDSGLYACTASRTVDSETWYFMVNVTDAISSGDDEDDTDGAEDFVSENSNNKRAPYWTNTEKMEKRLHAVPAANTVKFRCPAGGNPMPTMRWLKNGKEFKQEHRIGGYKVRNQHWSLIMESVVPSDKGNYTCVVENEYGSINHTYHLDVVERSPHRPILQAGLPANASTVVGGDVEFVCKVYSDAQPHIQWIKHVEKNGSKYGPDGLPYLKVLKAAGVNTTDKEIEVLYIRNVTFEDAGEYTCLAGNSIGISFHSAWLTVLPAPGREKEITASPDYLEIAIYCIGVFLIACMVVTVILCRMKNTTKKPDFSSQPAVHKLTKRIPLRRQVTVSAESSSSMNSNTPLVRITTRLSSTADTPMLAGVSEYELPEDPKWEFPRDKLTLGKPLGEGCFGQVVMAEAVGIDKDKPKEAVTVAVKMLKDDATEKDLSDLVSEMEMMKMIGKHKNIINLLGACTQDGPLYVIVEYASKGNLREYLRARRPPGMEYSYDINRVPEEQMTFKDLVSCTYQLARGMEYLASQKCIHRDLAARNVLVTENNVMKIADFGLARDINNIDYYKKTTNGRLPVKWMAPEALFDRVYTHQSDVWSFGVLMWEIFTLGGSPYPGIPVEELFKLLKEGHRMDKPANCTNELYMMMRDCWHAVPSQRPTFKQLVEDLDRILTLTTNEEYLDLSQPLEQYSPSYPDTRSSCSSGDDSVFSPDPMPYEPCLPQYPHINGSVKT
SMILES | remaining activity
COc1cc2nccc(Oc3ccc(NC(=S)NC(=O)c4ccccc4C)cc3)c2cc1OC | 89%
N#CC(C#N)=C(N)/C(C#N)=C/c1ccc(O)cc1 | 102%
O=C(O)c1ccc2c3c1cccc3c(=O)n1c3ccccc3nc21 | 100%
C#Cc1cccc(Nc2ncnc3cc(OCCOC)c(OCCOC)cc23)c1 | 83.4%
O=S(=O)(c1cccc2cnccc12)N1CCCNCC1 | 97.6%
CCOC(=O)c1c(C)[nH]c(/C=C2\C(=O)Nc3ccccc32)c1C | 97.9%
O=C1NC(=O)C(c2cn(CCCn3ccnc3)c3ccccc23)=C1Nc1ccccc1 | 103%
COc1ccc(C(=O)Nc2sc3c(c2C(N)=O)CCCC3)cc1OC | 100%
O=C(CCCc1ccc(-c2ccccc2F)cc1)Nc1ccc(O)cc1 | 102%
COc1ccc(OC)c2c(=S)c3ccccc3[nH]c12 | 95.8%
Oc1ccc(-c2nc(-c3ccncc3)c(-c3ccc(F)cc3)[nH]2)cc1 | 103%
Nc1ncnc2n[nH]c(Nc3ccc(F)cc3)c12 | 97.2%
O=C1NC(=O)C(c2cn(CCCO)c3ncccc23)=C1c1cnccn1 | 103%
COc1ccc(CNC(=O)Nc2ncc([N+](=O)[O-])s2)cc1 | 97.4%
Cc1nc(-c2ccccc2)c(-c2ccncc2)o1 | 108%

Further values, each from its own experiment
Compound | test | system | setting | endpoint | result
CC(C)n1cnc(-c2ccc(F)cc2)c1-c1ncc(C(=O)Nc2ccc(N3CCN(C)CC3)cc2)[nH]1 | phase 2a clinical trial | patients with idiopathic pulmonary fibrosis | dose not given, all compound arms pooled | patients with Gingivitis TEAE | 0%
